Measurements pooled from the literature.
Each line is one published result; not all experiments were run side by side. ± marks the error that the study gave.
Action: substrate
MIPEP: Mitochondrial intermediate peptidase (MIPEP, Homo sapiens, UniProt Q99797)
MALT1: Mucosa-associated lymphoid tissue lymphoma translocation protein 1 (MALT1, Homo sapiens, UniProt Q9UDY8)
HDAC8: Histone deacetylase 8 (HDAC8, Homo sapiens, UniProt Q9BY41)
HDAC6: Protein deacetylase HDAC6 (HDAC6, Homo sapiens, UniProt Q9UBN7)
Histone deacetylase 3/Nuclear receptor corepressor 2 (HDAC3/NCoR2): Histone deacetylase 3/Nuclear receptor corepressor 2 (HDAC3/NCoR2) (Homo sapiens, UniProt O15379+Q9Y618)
PTPN2: Tyrosine-protein phosphatase non-receptor type 2 (PTPN2, Homo sapiens, UniProt P17706)
OGA: Protein O-GlcNAcase (OGA, Homo sapiens, UniProt O60502)

By UniProt entry, the sequences of proteins in these tests, tags left out. Residues count along the entry.
UniProt Q99797, 36-713 limits assumed: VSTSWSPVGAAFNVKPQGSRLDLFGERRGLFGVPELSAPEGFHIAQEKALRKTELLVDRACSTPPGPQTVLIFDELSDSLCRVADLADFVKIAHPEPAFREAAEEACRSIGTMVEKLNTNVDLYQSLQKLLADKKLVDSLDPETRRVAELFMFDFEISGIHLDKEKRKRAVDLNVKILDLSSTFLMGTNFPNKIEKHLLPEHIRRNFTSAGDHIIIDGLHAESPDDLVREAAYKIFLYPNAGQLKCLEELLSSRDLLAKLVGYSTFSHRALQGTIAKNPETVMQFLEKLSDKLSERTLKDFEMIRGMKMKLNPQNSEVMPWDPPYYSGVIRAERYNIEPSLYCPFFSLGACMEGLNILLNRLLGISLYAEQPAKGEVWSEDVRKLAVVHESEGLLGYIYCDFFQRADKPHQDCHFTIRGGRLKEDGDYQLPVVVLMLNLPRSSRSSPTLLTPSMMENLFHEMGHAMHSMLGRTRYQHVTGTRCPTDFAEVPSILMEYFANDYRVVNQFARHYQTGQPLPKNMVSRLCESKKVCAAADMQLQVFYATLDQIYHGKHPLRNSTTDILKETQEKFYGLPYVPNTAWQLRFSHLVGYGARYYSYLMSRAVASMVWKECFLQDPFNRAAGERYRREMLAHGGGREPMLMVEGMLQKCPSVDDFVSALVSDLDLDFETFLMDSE
UniProt Q9UDY8, 329-566 limits assumed: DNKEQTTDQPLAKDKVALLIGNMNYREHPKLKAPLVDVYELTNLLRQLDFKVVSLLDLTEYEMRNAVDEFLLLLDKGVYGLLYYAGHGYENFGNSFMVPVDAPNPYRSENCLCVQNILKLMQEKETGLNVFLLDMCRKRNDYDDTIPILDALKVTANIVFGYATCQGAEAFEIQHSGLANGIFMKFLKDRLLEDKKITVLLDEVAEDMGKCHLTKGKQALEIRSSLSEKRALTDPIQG
UniProt Q9UDY8, whole entry: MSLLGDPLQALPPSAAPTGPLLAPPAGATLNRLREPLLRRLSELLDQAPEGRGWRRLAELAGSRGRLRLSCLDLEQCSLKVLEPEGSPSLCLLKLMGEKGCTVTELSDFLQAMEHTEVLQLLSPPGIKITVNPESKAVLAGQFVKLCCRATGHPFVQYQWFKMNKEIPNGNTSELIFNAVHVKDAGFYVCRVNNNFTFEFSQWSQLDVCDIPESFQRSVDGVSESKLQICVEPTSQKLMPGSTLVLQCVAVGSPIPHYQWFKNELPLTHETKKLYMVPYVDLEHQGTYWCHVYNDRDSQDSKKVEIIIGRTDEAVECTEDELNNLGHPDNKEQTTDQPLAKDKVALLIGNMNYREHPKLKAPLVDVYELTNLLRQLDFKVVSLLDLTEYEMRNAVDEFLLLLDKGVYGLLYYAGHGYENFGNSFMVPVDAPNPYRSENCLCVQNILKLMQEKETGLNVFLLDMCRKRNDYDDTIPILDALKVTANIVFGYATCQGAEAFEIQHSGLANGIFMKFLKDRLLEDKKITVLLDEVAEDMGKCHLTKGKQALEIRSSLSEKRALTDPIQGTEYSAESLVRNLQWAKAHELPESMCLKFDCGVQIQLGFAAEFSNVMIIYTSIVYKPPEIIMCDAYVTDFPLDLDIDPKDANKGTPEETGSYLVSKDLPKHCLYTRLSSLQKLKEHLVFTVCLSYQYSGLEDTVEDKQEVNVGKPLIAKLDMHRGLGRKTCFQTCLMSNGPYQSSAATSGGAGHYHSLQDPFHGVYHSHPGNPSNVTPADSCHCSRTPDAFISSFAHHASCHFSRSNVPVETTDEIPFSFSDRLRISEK
UniProt Q9BY41, whole entry: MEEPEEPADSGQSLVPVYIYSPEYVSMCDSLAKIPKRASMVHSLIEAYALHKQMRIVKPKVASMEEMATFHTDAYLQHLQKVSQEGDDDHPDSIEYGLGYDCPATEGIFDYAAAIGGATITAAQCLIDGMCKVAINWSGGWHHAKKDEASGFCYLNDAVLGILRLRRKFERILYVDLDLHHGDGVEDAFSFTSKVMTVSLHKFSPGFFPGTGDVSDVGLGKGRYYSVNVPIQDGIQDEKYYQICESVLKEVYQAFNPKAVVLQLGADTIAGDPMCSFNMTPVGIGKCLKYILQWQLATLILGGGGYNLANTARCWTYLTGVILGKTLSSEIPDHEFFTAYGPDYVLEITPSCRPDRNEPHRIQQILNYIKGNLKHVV
UniProt O15379, whole entry: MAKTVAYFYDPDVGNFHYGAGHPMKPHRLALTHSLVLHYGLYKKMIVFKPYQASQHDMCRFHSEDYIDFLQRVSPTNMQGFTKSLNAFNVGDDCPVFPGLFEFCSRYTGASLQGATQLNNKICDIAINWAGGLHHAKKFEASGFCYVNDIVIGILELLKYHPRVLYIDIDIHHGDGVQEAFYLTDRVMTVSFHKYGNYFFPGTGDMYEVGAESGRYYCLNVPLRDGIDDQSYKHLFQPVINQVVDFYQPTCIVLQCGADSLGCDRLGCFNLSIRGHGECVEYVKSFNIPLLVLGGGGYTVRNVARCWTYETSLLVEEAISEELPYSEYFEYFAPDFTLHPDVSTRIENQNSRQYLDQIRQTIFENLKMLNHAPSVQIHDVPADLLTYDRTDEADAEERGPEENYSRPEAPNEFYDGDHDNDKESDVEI
UniProt Q9Y618, 389-480 partner limits assumed: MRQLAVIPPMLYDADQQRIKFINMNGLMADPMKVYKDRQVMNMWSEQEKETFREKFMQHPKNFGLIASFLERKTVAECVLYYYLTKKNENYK
UniProt P17706, whole entry: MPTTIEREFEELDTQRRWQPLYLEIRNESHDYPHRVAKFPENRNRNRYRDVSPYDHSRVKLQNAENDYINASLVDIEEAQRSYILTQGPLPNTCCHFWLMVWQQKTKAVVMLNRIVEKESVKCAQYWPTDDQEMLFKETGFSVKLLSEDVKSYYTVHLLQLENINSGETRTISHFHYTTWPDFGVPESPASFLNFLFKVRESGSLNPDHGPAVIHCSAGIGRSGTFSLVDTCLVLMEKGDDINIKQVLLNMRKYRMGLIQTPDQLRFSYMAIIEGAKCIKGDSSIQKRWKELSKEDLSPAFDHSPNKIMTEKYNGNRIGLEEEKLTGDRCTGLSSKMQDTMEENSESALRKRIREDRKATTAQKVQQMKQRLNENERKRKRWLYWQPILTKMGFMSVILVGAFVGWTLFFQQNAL
UniProt O60502, whole entry: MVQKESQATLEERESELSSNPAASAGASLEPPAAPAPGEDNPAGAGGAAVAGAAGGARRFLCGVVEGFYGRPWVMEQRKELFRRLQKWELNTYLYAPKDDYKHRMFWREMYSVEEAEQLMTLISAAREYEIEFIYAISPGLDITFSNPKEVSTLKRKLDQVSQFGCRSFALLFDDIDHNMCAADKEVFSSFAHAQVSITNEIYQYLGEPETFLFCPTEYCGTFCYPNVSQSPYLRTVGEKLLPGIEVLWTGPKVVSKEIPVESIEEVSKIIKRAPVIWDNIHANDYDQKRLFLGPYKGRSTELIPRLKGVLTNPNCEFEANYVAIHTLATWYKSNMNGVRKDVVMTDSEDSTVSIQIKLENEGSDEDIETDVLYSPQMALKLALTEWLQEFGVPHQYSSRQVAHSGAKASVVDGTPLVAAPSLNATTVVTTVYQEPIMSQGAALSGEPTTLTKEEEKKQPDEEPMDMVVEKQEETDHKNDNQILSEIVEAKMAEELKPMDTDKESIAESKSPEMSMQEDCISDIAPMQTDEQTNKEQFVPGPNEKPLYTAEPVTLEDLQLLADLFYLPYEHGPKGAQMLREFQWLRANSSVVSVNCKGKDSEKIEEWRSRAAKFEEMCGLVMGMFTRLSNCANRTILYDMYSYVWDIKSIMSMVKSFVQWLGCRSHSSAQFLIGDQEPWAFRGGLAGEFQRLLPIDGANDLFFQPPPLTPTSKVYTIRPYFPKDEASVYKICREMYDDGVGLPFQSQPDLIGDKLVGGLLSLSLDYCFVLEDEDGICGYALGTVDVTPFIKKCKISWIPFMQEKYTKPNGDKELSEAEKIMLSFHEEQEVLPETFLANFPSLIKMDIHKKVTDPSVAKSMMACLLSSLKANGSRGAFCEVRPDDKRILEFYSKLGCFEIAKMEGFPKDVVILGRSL
UniProt Q96EB6, whole entry: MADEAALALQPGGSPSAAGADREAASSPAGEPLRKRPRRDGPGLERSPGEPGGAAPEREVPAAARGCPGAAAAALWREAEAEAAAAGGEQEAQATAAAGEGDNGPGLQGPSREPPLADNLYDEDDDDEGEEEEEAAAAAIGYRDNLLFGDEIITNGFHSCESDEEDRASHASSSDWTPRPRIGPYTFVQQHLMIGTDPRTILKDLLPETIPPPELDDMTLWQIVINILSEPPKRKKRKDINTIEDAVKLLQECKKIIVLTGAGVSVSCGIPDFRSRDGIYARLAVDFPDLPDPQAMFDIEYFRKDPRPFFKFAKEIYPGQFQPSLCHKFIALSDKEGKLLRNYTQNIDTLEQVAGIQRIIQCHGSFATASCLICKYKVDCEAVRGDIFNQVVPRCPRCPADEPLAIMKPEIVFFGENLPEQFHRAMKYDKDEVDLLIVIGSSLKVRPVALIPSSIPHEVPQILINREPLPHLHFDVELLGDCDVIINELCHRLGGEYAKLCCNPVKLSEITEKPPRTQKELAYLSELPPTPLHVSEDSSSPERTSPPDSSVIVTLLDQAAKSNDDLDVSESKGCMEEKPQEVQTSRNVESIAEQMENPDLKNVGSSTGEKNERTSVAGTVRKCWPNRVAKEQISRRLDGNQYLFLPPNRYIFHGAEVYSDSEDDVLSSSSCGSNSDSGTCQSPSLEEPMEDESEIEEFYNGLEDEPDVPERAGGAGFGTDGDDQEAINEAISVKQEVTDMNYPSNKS
UniProt P30419, whole entry: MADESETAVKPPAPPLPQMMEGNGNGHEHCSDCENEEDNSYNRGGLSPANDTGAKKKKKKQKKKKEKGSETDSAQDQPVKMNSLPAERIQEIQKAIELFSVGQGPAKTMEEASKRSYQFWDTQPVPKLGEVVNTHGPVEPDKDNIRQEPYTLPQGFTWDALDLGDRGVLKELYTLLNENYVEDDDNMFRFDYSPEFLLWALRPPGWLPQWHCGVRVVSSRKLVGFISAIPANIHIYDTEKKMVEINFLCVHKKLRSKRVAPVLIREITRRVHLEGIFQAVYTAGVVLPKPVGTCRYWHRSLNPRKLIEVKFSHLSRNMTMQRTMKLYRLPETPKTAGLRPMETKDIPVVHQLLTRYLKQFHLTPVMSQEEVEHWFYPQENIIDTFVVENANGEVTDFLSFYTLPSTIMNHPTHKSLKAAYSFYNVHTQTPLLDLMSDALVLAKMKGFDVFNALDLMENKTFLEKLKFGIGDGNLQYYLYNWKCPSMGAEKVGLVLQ
UniProt Q99K82, whole entry: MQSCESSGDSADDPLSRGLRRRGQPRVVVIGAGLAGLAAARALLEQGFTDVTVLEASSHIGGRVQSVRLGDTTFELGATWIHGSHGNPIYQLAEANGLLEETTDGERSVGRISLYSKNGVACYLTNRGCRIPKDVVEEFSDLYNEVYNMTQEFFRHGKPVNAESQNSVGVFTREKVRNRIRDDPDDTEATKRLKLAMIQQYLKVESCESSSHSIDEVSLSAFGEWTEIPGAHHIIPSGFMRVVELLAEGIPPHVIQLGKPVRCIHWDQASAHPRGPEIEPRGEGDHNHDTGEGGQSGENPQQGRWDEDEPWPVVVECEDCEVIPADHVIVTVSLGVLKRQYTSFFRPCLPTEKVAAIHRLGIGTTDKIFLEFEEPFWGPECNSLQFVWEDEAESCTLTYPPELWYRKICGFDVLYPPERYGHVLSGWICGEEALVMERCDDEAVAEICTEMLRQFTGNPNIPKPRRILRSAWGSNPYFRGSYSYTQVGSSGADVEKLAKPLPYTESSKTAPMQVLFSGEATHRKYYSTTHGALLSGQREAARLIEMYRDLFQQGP
UniProt Q9NY33, whole entry: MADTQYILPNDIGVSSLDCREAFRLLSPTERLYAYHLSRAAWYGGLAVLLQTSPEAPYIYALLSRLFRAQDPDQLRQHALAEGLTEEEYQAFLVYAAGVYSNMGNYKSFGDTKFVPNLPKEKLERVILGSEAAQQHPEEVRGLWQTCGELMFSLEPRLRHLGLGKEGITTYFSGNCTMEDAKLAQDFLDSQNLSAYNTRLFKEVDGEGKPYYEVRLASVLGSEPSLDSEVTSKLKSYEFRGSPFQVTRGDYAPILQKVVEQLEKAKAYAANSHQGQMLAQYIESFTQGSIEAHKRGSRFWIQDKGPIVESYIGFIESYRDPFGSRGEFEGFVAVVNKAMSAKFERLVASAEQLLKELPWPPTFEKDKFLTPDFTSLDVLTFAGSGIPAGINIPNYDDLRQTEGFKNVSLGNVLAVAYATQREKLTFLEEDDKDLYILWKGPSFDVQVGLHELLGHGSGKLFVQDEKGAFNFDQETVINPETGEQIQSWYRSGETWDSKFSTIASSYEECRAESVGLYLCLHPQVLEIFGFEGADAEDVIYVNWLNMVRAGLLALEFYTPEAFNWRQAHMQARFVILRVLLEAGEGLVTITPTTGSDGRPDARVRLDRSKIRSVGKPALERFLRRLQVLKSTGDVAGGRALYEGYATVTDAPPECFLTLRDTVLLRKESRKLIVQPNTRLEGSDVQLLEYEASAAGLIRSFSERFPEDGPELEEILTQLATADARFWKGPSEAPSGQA

| SMILES | target | test | setting | Km [µM] |
| --- | --- | --- | --- | --- |
| CC(C)C[C@H](NC(=O)[C@@H]1CCCN1C(=O)[C@H](CCC(N)=O)NC(=O)CNC(=O)[C@H](CO)NC(=O)[C@H](CCCNC(=N)N)NC(=O)[C@H](Cc1ccccc1)NC(=O)[C@H](CC(N)=O)NC(=O)[C@H](CCCNC(=N)N)NC(=O)[C@@H](NC(=O)c1ccccc1N)C(C)C)C(=O)N[C@@H](CCC(N)=O)C(=O)N[C@@H](CC(N)=O)C(=O)N[C@@H](CCCCN)C(=O)N[C@H](C(=O)N[C@@H](CCC(N)=O)C(=O)NCCNc1ccc([N+](=O)[O-])cc1[N+](=O)[O-])C(C)C | MIPEP | FRET peptide hydrolysis |  | 1.8 |
| CC(=O)N[C@@H](C)C(=O)N[C@@H](CC(C)C)C(=O)N[C@H](C(=O)N[C@@H](CO)C(=O)N[C@@H](CCCNC(=N)N)C(=O)Nc1ccc2c(CC(N)=O)cc(=O)oc2c1)C(C)C | MALT1 | fluorogenic peptide hydrolysis | pH 7.5, catalytic domain, sodium citrate 0.9 M | 3 |
| CC(=O)NCCCC[C@H](NC(=O)CNC(=O)[C@H](CCCNC(=N)N)NC(C)=O)C(=O)N[C@@H](Cc1c[nH]c2ccccc12)C(N)=O | HDAC8 |  | 25 °C | 2700 ± 1700 |
| CC(=O)N[C@@H](CCC(N)=O)C(=O)N[C@H](C(=O)N[C@@H](C)C(=O)N[C@@H](CCCNC(=N)N)C(=O)N[C@@H](CCCCNC(=O)CCc1ccc(N=Nc2ccc(N(C)C)cc2)cc1)C(=O)N[C@@H](CO)C(=O)N[C@H](C(=O)NCC(=O)NCC(=O)NCCCNC(=S)Nc1ccc2c(c1)C(=O)OC21c2ccc(O)cc2Oc2cc(O)ccc21)[C@@H](C)O)[C@@H](C)O | SIRT1 (Homo sapiens, UniProt Q96EB6) | enzyme activity, plate reader kinetics |  | 0.1 ± 0.014 |
| CC(=O)NCCCC[C@H](NC(=O)CNC(=O)[C@H](CCCNC(=N)N)NC(C)=O)C(N)=O | HDAC8 |  | 25 °C | > 5000 |
| CSCC[C@H](NC(=O)[C@H](CC(C)C)NC(=O)[C@H](CC(N)=O)NC(=O)c1ccccc1N)C(=O)N[C@@H](CCCCN)C(=O)N[C@@H](CCCCN)C(=O)N[C@@H](CO)C(=O)N[C@H](C(=O)N[C@@H](CCCCNc1ccc([N+](=O)[O-])cc1[N+](=O)[O-])C(N)=O)[C@@H](C)O | MIPEP | FRET peptide hydrolysis |  | 1.3 |
| CC(=O)NCCCC[C@H](NC(=O)CNC(=O)[C@H](CCCNC(=N)N)NC(C)=O)C(=O)Nc1ccc2c(C)cc(=O)oc2c1 | HDAC8 |  | 25 °C | 500 ± 200 |
| CC(C)C[C@H](NC(=O)CN)C(=O)N[C@@H](CC(C)C)C(=O)N[C@@H](CC(=O)O)C(=O)N[C@@H](CCCNC(=N)N)C(=O)N[C@@H](CC(C)C)C(=O)N[C@@H](CO)C(=O)N[C@H](C(=O)O)C(C)C | NMT1 (Homo sapiens, UniProt P30419) |  |  | < 0.1 |
| CC(=O)NCCCC[C@H](NC(C)=O)C(=O)Nc1ccc2c(C)cc(=O)oc2c1 | HDAC6 |  | 25 °C | 15 ± 7 |
| CC(=O)N[C@@H](CC(C)C)C(=O)N[C@@H](CCCNC(=N)N)C(=O)N[C@@H](CO)C(=O)N[C@@H](CCCNC(=N)N)C(=O)Nc1ccc2c(C(F)(F)F)cc(=O)oc2c1 | MALT1 | fluorogenic peptide hydrolysis | pH 7.5, catalytic domain, sodium citrate 0.9 M | 15.3 |
| CC(=O)NCCCC[C@H](NC(=O)CNC(=O)[C@H](CC(C)C)NC(C)=O)C(=O)Nc1ccc2c(C)cc(=O)oc2c1 | Histone deacetylase 3/Nuclear receptor corepressor 2 (HDAC3/NCoR2) | fluorogenic trypsin-coupled | pH 7.4, 25 °C | < 10 |
| CC(=O)N[C@@H](CC(C)C)C(=O)N[C@@H](CCCNC(=N)N)C(=O)N[C@@H](CO)C(=O)N[C@@H](CCCNC(=N)N)C(=O)Nc1ccc2c(C)cc(=O)oc2c1 | MALT1 | fluorogenic peptide hydrolysis | pH 7.5, catalytic domain, sodium citrate 0.9 M | 19.5 |
| CC[C@H](C)[C@H](NC(=O)[C@H](CC(=O)O)NC(C)=O)C(=O)N[C@@H](CC(=O)O)C(=O)N[C@@H](CCC(=O)O)C(=O)N[C@@H](Cc1cc(=O)oc2cc(OP(=O)(O)O)ccc12)C(=O)N[C@@H](CC(C)C)C(=O)N[C@@H](C)C(=O)N[C@@H](C)C(N)=O | PTPN2 | peptide hydrolysis |  | 320 ± 20 |
| CC(=O)NCCCC[C@H](NC(C)=O)C(N)=O | HDAC8 |  | 25 °C | 800 ± 400 |
| Cc1cc(=O)oc2cc(NC(=O)[C@H](Cc3ccc(O)cc3)NC(=O)[C@@H](NC(=O)[C@H](CC(C)C)NC(=O)[C@H](CC(C)C)NC(=O)CCC(=O)O)C(C)C)ccc12 | PSMB5 (Homo sapiens, UniProt P28074) | chymotrypsin-like activity | pH 7.8, 37 °C | 5.9 ± 0.8 |
| CSCC[C@H](NC(=O)c1ccccc1N)C(=O)N[C@H](C(=O)N[C@@H](C)C(=O)N[C@@H](C)C(=O)N[C@@H](CC(C)C)C(=O)N[C@@H](CCCCN)C(=O)N[C@H](C(=O)N[C@@H](CCCCNc1ccc([N+](=O)[O-])cc1[N+](=O)[O-])C(N)=O)[C@@H](C)O)[C@@H](C)O | MIPEP | FRET peptide hydrolysis | multiple cleavage sites | 4.2 |
| CCCC(=O)NCCCC[C@H](NC(=O)CNC(=O)[C@H](CC(C)C)NC(C)=O)C(=O)Nc1ccc2c(C)cc(=O)oc2c1 | Histone deacetylase 3/Nuclear receptor corepressor 2 (HDAC3/NCoR2) | fluorogenic trypsin-coupled | pH 7.4, 25 °C | < 10 |
| NCCCNCCCCNCCCNCc1ccccn1 | Smox (Mus musculus, UniProt Q99K82) | Amplex Red/HRP | pH 7.5, 37 °C | 245 ± 80 |
| CC(=O)N[C@@H](CC(C)C)C(=O)N[C@H](C(=O)N[C@@H](CO)C(=O)N[C@@H](CCCNC(=N)N)C(=O)Nc1ccc2c(CC(N)=O)cc(=O)oc2c1)C(C)C | MALT1 | fluorogenic peptide hydrolysis | 20 min preincubation, pH 7.5, 37 °C, enzyme 399 nM, citrate 0.9 M | 15.3 |
| CC(=O)N[C@H]1[C@H](OC[C@H](NC(=O)[C@H](Cc2c[nH]cn2)NC(C)=O)C(=O)NCC(N)=O)O[C@H](CO)[C@@H](O)[C@@H]1O | OGA |  | pH 7.5, 37 °C, together with: 4MU-GlcNAc 200 µM competition | 525 ± 13 |
| CC[C@H](C)[C@H](NC(=O)c1ccccc1N)C(=O)N[C@@H](CCCCN)C(=O)N[C@@H](CCC(N)=O)C(=O)N[C@@H](CO)C(=O)N[C@@H](CO)C(=O)N[C@@H](CC(C)C)C(=O)N[C@@H](CC(C)C)C(=O)N[C@@H](CCCCNc1ccc([N+](=O)[O-])cc1[N+](=O)[O-])C(N)=O | MIPEP | FRET peptide hydrolysis |  | 1.1 |
| CC(=O)N[C@H](C(=O)N[C@@H](Cc1ccccc1)C(=O)N[C@@H](CC(=O)O)C(=O)N[C@@H](CCC(N)=O)C(=O)N[C@@H](Cc1cc(=O)oc2cc(OP(=O)(O)O)ccc12)C(=O)N[C@@H](Cc1c[nH]cn1)C(=O)N[C@@H](CCC(=O)O)C(=O)N[C@@H](CO)C(=O)N1CCC[C@H]1C(N)=O)C(C)C | PTPN2 | peptide hydrolysis |  | 280 ± 30 |
| CC[C@H](C)[C@H](NC(=O)[C@H](Cc1ccc(O)cc1)NC(=O)[C@@H](N)C(C)C)C(=O)N[C@@H](Cc1cnc[nH]1)C(=O)N1CCC[C@H]1C(=O)O | DPP3 (Homo sapiens, UniProt Q9NY33) | radiolabelled substrate hydrolysis | 37 °C, together with: 0.5 nM iodinated substrate | 3 ± 1 |
| CC(=O)N[C@H]1[C@H](OC[C@H](NC(=O)[C@H](Cc2c[nH]cn2)NC(=O)[C@H](C)NC(=O)[C@@H](NC(C)=O)C(C)C)C(=O)NCC(=O)N[C@@H](C)C(N)=O)O[C@H](CO)[C@@H](O)[C@@H]1O | OGA |  | pH 7.5, 37 °C, together with: 4MU-GlcNAc 200 µM competition | 1200 ± 43 |
| CC(=O)NCCCC[C@H](NC(C)=O)C(=O)N[C@@H](Cc1c[nH]c2ccccc12)C(N)=O | HDAC6 |  | 25 °C | 70 ± 30 |
| CC(C)C[C@H](NC(=O)[C@@H]1CCCN1C(=O)[C@H](CCC(N)=O)NC(=O)c1ccccc1N)C(=O)N[C@@H](C)C(=O)N[C@@H](CC(N)=O)C(=O)N[C@@H](CCCCN)C(=O)N[C@H](C(=O)N[C@@H](CCC(N)=O)C(=O)NCCNc1ccc([N+](=O)[O-])cc1[N+](=O)[O-])C(C)C | MIPEP | FRET peptide hydrolysis |  | 5.1 |
| CC(=O)N[C@@H](CC(C)C)C(=O)N[C@@H](CCCNC(=N)N)C(=O)N[C@@H](CO)C(=O)N[C@@H](CCCNC(=N)N)C(=O)Nc1ccc2c(CC(N)=O)cc(=O)oc2c1 | MALT1 | fluorogenic peptide hydrolysis | 20 min preincubation, pH 7.5, 37 °C, enzyme 399 nM, citrate 0.9 M | 15.6 |
| CC(=O)NCCCC[C@H](NC(=O)[C@H](CCCCNC(C)=O)NC(=O)[C@H](Cc1c[nH]cn1)NC(=O)[C@H](CCCNC(=N)N)NC(C)=O)C(N)=O | HDAC8 |  | 25 °C | 3100 ± 1100 |

Excerpt of the above:
| SMILES | target | test | setting | Km [µM] |
| --- | --- | --- | --- | --- |
| CC(C)C[C@H](NC(=O)CN)C(=O)N[C@@H](CC(C)C)C(=O)N[C@@H](CC(=O)O)C(=O)N[C@@H](CCCNC(=N)N)C(=O)N[C@@H](CC(C)C)C(=O)N[C@@H](CO)C(=O)N[C@H](C(=O)O)C(C)C | NMT1 (Homo sapiens, UniProt P30419) |  |  | < 0.1 |
| CC(=O)NCCCC[C@H](NC(C)=O)C(=O)Nc1ccc2c(C)cc(=O)oc2c1 | HDAC6 |  | 25 °C | 15 ± 7 |
| CC(=O)N[C@@H](CC(C)C)C(=O)N[C@@H](CCCNC(=N)N)C(=O)N[C@@H](CO)C(=O)N[C@@H](CCCNC(=N)N)C(=O)Nc1ccc2c(C(F)(F)F)cc(=O)oc2c1 | MALT1 | fluorogenic peptide hydrolysis | pH 7.5, catalytic domain, sodium citrate 0.9 M | 15.3 |
